Published values of several laboratories.
Protocols differ between the studies behind these lines. Values joined by “and” are separate records of one study, mostly repeats; a detail may differ. ± gives the spread as reported.
Genome polyprotein NS2B-NS3 protease: Genome polyprotein, NS2B-NS3 protease (dengue virus type 2, UniProt P29990)

| SMILES | target or system | assay | test system | setting | endpoint | value |
| --- | --- | --- | --- | --- | --- | --- |
| O=C(NCc1ccc(F)cc1)N1CCN2C(=O)OC(c3ccccc3)(c3ccccc3)C2C1 (stereo not drawn) | Neuropeptide S receptor (Mus musculus, UniProt Q8BZP8) | calcium mobilization, antagonist | HEK293 expressing mouse NPSR | 24 min preincubation, 37 °C, together with: 30 nM NPS | Kb | 0.0145 µM |
| CCCCC/C=C\C/C=C\C/C=C\C/C=C\CCCC(=O)OC(CO)CO | CNR2 (Homo sapiens, UniProt P34972, Q63R) | β-arrestin 2 recruitment, agonist, BRET | HEK293 coexpressing GRK1 |  | EC50 | 1.66 µM |
| C=CCN1CCC2(C)c3cc(O)ccc3CC1C2C (single isomer, unassigned; (-)) | Sigmar1 (Mus musculus, UniProt O55242) |  |  | pH 8 | IC50 | 3.95 ± 0.616 µM |
| CCCCN1C(=O)C(C=CC=CC=C2C(=O)N(c3ccc(S(=O)(=O)O)cc3)N=C2C)C(=O)N(CCCC)C1=O | SLC4A1 (Homo sapiens, UniProt P02730) | 36Cl exchange flux, inhibitor | human erythrocytes | 0 °C, chloride-loaded form, short exposure | Ki | 0.52 to 0.53 µM and 0.524 to 0.529 µM |
| CC(=O)c1ccc(Cn2cc(COc3cc(-n4nc(C(C)(C)C)oc4=O)c(Cl)cc3Cl)nn2)cc1 | Toxoplasma gondii | intracellular growth | HFF, Δppo knockout | 96 h | IC50 | 31.9 ± 7.7 µM |
| COC(=O)[C@@]1(O)C[C@H]2O[C@]1(C)n1c3ccccc3c3c4c(c5c6ccccc6n2c5c31)C(=O)NC4 | HeLa expressing Luc-ODC | Luc-ODC degradation, inhibitor, cycloheximide chase luciferase |  |  | IC50 | 2.5 ± 0.7 µM |
| Fc1cc(C2=Nn3c(COc4ccc(Cl)cc4Cl)nnc3S/C2=C\c2ccc(-c3ccc(Cl)cc3)o2)c(Cl)cc1Cl | Genome polyprotein NS2B-NS3 protease | enzyme activity, inhibitor | Dengue virus | pH 8.0, together with: 20 µM Pyr-RTKR-AMC | IC50 | > 10 µM |
| CC(C)(C)c1nn(-c2cc(OCc3cn(Cc4ccc(Cl)cc4)nn3)c(Cl)cc2Cl)c(=O)o1 | Toxoplasma gondii | intracellular growth | HFF, Δppo knockout | 96 h | IC50 | 28.8 ± 6.3 µM |
| CCCCC(CC)COC(=O)c1ccccc1C(=O)O (stereo not drawn) | Nuclear receptor subfamily 1 group I member 3, isoform CAR2 (Homo sapiens, UniProt Q14994) | reporter gene, activator | COS-1 | 24 h | EC50 | 2.2 µM |
| CC(C)(C)c1nn(-c2cc(OCc3cn(Cc4ccc(C(F)(F)F)cc4)nn3)c(Cl)cc2Cl)c(=O)o1 | Toxoplasma gondii | intracellular growth | HFF, Δppo knockout | 96 h | IC50 | 28.4 ± 6.3 µM |
| Nc1cc(N)c(N=Nc2ccc(S(=O)(=O)Nc3nccs3)cc2)cc1N=Nc1ccc(S(=O)(=O)Nc2nccs2)cc1 | Genome polyprotein NS2B-NS3 protease | enzyme activity, inhibitor | Dengue virus | pH 8.0, together with: 20 µM Pyr-RTKR-AMC | IC50 | 2.75 µM |
| Cc1cc(O)cc(C)c1C[C@H](N)C(=O)NCCN(C)CCN1CCc2ccccc2C1 | OPRK1 (Homo sapiens, UniProt P41145) | GTPγS binding, agonist, radiometric |  | cell membranes | EC50 | 1.22 µM |
| CCN(Cc1ccccc1)C(=O)Cn1c2ccccc2c2ccccc21 | Translocator protein, A147T (TSPO, Homo sapiens, UniProt P30536) | radioligand binding |  | together with: [3H]PK11195 | Ki | 0.46 ± 0.083 µM |
| O=C1C(Cl)=C(Nc2ccc(S(=O)(=O)Nc3ccccn3)cc2)C(=O)c2ccccc21 | Proteasome component C5/PSMB5 (Homo sapiens, UniProt P20618+P28074) | chymotrypsin-like activity, inhibitor | primary multiple myeloma cells, patient | 24 h, range over sample A patients | IC50 | 1.3 ± 0.19 µM |
| CC(C)(COP(=O)(O)OP(=O)(O)OC[C@H]1O[C@@H](n2cnc3c(N)ncnc32)[C@H](O)[C@@H]1OP(=O)(O)O)[C@@H](O)C(=O)NCCC(=O)NCCSCC(=O)N[C@@H](CO)C(=O)NCC(=O)N[C@@H](CCCNC(=N)N)C(N)=O | NAA40 (Homo sapiens, UniProt Q86UY6) | inhibitor |  |  | Ki | 0.0037 ± 0.00071 µM |
| Clc1ccc(-c2nn3c(COc4cccc(OCc5nnc6sc(-c7ccc(Cl)cc7)nn56)c4)nnc3s2)cc1 | Genome polyprotein NS2B-NS3 protease | enzyme activity, inhibitor | Dengue virus | pH 8.0, together with: 20 µM Pyr-RTKR-AMC | IC50 | > 10 µM |
| CC(=O)C[C@@H](c1ccccc1)c1c(O)c2ccc(O)cc2oc1=O |  | substrate, measured: 7-hydroxywarfarin 4'-glucuronide | pooled human liver microsomes |  | Ki | 2840 µM |
| O=C(Oc1ccc([N+](=O)[O-])cc1)N1CCC(C(O)(c2ccc3c(c2)OCO3)c2ccc3c(c2)OCO3)CC1 | CES1 (Homo sapiens, UniProt P23141) | enzyme activity, inhibitor, activity-based protein profiling | THP-1 cell lysate | 30 min, together with: FP-biotin 2 µM | IC50 | < 0.1 µM |
| CC(C)(C)c1ccc(S(=O)(=O)/C=C/C#N)cc1 | C2C12 | NF-κB reporter gene |  | 24 h, together with: TNF-α 10 ng/mL | IC50 | no inhibition |
| C[C@@H]1CC[C@H]2[C@@H](C)C(=O)O[C@@H]3O[C@@]4(C)CC[C@@H]1[C@]32OO4 | HEK293 NF-κB luciferase reporter | NF-κB reporter gene, antagonist |  | 24 h, together with: TNFα 5 ng/mL | EC50 | > 100 µM |
| CC(C)(C)c1nn(-c2cc(OCc3cn(Cc4ccc(Br)cc4)nn3)c(Cl)cc2Cl)c(=O)o1 | Toxoplasma gondii | intracellular growth | HFF, Δppo knockout | 96 h | IC50 | 25.8 ± 4.8 µM |

Excerpt of the above:
| SMILES | target or system | assay | test system | setting | endpoint | value |
| --- | --- | --- | --- | --- | --- | --- |
| C=CCN1CCC2(C)c3cc(O)ccc3CC1C2C (single isomer, unassigned; (-)) | Sigmar1 (Mus musculus, UniProt O55242) |  |  | pH 8 | IC50 | 3.95 ± 0.616 µM |
